Assay results gathered from unrelated publications.
Protocols differ between the studies behind these lines. ± gives the spread as reported. Converted amounts (≈) assume the structure as drawn.

| Structure (SMILES) | target or system | test | system | setting | scale | endpoint | result |
| --- | --- | --- | --- | --- | --- | --- | --- |
| COC1CN([C@H]2CC[C@H]([C@@]3(C)Oc4c(Cl)cc(C(=O)NCc5c(SC)cc(C)[nH]c5=O)c(C)c4O3)CC2)C1 | – | RNA-seq, refers to: LPAR1 | human, whole blood | dose not given, 24 h | reference: pretreatment baseline | log2 fold change | 1.85 |
| C=CC(=O)N1[C@@H](c2ccc3c(c2)OCO3)c2[nH]c3ccccc3c2C[C@H]1C(=O)N1CCN(C)CC1 | human cyclin E1 N112C-3xFLAG:CDK2 | co-IP with TMT proteomics, refers to: SRP9 | – | concentration not given, P49458 | reference: wild type DMSO | relative co-enrichment | 106% |
| Cc1ncsc1-c1ccc(C(C)NC(=O)C2CC(O)CN2C(=O)C(NC(=O)CCCCCCCCCCN2CCCC(Nc3ncc(Cl)c(Nc4ccccc4S(=O)(=O)C(C)C)n3)C2)C(C)(C)C)cc1 (stereo not shown) | 22Rv1 | RNA-seq, refers to: RNF144B mRNA | – | concentration not given | reference: DMSO | log2 fold change | -1.07 |
| O=C(N/N=C/c1ccc(C[n+]2ccccc2)cc1)c1cc(C(=O)N/N=C/c2ccc(C[n+]3ccccc3)cc2)ncn1 | telomeric G4 DNA hybrid-2 | FRET melting | – | 1 µM, DNA 0.2 µM | – | ΔTm | 3.1 ± 1 °C |
| CC(C)(C)c1cc(-c2ccc3cccnc3n2)nc(-c2ccc3cccnc3n2)c1.COc1ccncc1.[Cl-].[Cl-].[Ru+2].c1ccc2cc3nc4c5cccnc5c5ncccc5c4nc3cc2c1 | SK-MEL-28 | – | – | visible light | reference: dark EC50 over light EC50 | phototherapeutic index | 198 |
| C=CC(=O)Nc1cccc(Cn2ncc3cnc(Nc4cnn(CCOC)c4)nc32)c1 | WNK3 human | binding, KINOMEscan | – | 100 nM | lower = stronger binding | percent of control | 96% |
| C[n+]1ccc(/C=N/NC(=O)c2cccc(C(=O)N/N=C/c3cc[n+](C)cc3)c2)cc1 | telomeric G4 DNA hybrid-2 | FRET melting | – | 1 µM, DNA 0.2 µM | – | ΔTm | 2.5 ± 1.5 °C |
| C=C(NC(=O)c1csc(-c2nc3c(cc2O)-c2nc(cs2)C(=O)NC(C(C)O)C(=O)NC(=C(C)OC)c2nc(cs2)C(=O)NC2c4nc(cs4)C(=O)NC(COC(=O)c4c5c6c(cccc6n4O)COC(=O)C(OC4CC(C)(O)C(N(C)C)C(C)O4)C2OC5)c2nc-3cs2)n1)C(N)=O (stereo not shown) | Enterococcus faecalis | – | vancomycin-intermediate, 10 isolates | pH 8.5 | – | MIC50 | 0.0312 µg/mL (≈ 0.0217 µM) |
| Nc1ncc(-c2cc(-c3cnn(CC(F)(F)F)c3)ncc2F)nc1C(=O)NC1CNCC(F)C1 (stereo not shown) | TAK1 | KINOMEscan | – | 1 µM | reference: DMSO control | remaining binding | 97% |
| CC(=O)[O-].O.O.[O-]c1ccc(Br)cc1C=NCCN1CCOCC1.[Zn+2] | – | FRAP | – | 120 µM | – | ferric reducing power | 26.8% |
| O=C(N/N=C/c1cc[n+](Cc2ccccc2)c2ccccc12)c1cc(C(=O)N/N=C/c2cc[n+](Cc3ccccc3)c3ccccc23)ncn1 | telomeric G4 DNA hybrid-2 | FRET melting | – | 1 µM, DNA 0.2 µM | – | ΔTm | 13.2 ± 0.2 °C |
| N=C(N)NCCC[C@@H]1NC(=O)[C@H](CCCNC(=N)N)NC(=O)[C@@H](CCCNC(=N)N)NC(=O)[C@@H](CCCNC(=N)N)NC(=O)[C@@H](C(c2ccccc2)c2ccccc2)NC(=O)[C@H](Cc2c[nH]c3ccccc23)NC(=O)[C@@H](C(c2ccccc2)c2ccccc2)NC1=O | Aspergillus fumigatus | fungal growth | – | – | – | MIC | > 64 µg/mL |
| C[n+]1ccc(/C=N/NC(=O)c2cc(C(=O)N/N=C/c3cc[n+](C)c4ccccc34)ncn2)c2ccccc21 | telomeric G4 DNA hybrid-2 | FRET melting | – | 1 µM, DNA 0.2 µM, added: duplex DNA competitor 10 µM | – | ΔTm | 4.7 ± 0.4 °C |
| CNS(=O)(=O)Nc1nccc(Cc2c(C)c3ccc(Oc4ncccc4F)cc3oc2=O)c1F | COV504 | cell viability | – | 7 days | – | IC50 | > 1 µM |
| C[n+]1cccc2cc(/C=N/NC(=O)c3cccc(C(=O)N/N=C/c4ccc5c(ccc[n+]5C)c4)n3)ccc21 | telomeric G4 DNA hybrid-2 | FRET melting | – | 1 µM, DNA 0.2 µM, added: duplex DNA competitor 10 µM | – | ΔTm | 20.3 ± 1.8 °C |
| CN1CCCNC(=O)c2cccc(c2)C(=O)NCCCN(C)CCCNc2cccc3c2C(=O)c2cccc(c2C3=O)NCCC1 | SAS | RNA-Seq, refers to: WDR7 mRNA | – | 1 µM, 6 h | reference: untreated cells | log2 fold change | -1.23 |

Repeated from above:
| Structure (SMILES) | target or system | test | system | setting | scale | endpoint | result |
| --- | --- | --- | --- | --- | --- | --- | --- |
| Cc1ncsc1-c1ccc(C(C)NC(=O)C2CC(O)CN2C(=O)C(NC(=O)CCCCCCCCCCN2CCCC(Nc3ncc(Cl)c(Nc4ccccc4S(=O)(=O)C(C)C)n3)C2)C(C)(C)C)cc1 (stereo not shown) | 22Rv1 | RNA-seq, refers to: RNF144B mRNA | – | concentration not given | reference: DMSO | log2 fold change | -1.07 |
| COC1CN([C@H]2CC[C@H]([C@@]3(C)Oc4c(Cl)cc(C(=O)NCc5c(SC)cc(C)[nH]c5=O)c(C)c4O3)CC2)C1 | – | RNA-seq, refers to: LPAR1 | human, whole blood | dose not given, 24 h | reference: pretreatment baseline | log2 fold change | 1.85 |
